Published values of several laboratories.
Parts stem from different laboratories: compare values within a part only.
UniProt P54753, sequence (whole entry, looked up): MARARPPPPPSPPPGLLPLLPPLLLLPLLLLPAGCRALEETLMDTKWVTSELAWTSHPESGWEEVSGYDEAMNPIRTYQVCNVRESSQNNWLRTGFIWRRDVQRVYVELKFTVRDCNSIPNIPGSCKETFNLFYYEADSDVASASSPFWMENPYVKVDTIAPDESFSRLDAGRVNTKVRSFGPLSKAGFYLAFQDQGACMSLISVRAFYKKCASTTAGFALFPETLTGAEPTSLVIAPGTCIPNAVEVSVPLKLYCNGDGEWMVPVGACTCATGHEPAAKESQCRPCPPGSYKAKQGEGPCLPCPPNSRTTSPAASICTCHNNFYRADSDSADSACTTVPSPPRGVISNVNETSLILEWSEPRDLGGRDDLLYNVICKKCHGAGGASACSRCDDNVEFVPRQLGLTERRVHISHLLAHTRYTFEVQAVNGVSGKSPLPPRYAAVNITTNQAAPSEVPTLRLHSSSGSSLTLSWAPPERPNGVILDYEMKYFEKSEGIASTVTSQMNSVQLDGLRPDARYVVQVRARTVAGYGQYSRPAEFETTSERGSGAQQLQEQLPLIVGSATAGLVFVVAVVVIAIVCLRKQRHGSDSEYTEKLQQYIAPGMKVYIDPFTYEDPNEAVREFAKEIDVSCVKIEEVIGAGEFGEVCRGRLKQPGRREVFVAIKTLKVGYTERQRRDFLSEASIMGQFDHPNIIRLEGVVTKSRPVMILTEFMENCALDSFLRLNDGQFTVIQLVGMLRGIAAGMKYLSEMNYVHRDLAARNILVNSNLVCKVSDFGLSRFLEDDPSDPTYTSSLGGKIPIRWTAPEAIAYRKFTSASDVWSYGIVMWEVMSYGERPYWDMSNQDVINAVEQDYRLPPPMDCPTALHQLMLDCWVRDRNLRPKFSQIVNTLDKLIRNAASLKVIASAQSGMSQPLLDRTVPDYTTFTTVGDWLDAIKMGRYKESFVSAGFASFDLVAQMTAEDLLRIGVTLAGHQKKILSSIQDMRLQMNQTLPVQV
UniProt P07332, sequence (whole entry, looked up): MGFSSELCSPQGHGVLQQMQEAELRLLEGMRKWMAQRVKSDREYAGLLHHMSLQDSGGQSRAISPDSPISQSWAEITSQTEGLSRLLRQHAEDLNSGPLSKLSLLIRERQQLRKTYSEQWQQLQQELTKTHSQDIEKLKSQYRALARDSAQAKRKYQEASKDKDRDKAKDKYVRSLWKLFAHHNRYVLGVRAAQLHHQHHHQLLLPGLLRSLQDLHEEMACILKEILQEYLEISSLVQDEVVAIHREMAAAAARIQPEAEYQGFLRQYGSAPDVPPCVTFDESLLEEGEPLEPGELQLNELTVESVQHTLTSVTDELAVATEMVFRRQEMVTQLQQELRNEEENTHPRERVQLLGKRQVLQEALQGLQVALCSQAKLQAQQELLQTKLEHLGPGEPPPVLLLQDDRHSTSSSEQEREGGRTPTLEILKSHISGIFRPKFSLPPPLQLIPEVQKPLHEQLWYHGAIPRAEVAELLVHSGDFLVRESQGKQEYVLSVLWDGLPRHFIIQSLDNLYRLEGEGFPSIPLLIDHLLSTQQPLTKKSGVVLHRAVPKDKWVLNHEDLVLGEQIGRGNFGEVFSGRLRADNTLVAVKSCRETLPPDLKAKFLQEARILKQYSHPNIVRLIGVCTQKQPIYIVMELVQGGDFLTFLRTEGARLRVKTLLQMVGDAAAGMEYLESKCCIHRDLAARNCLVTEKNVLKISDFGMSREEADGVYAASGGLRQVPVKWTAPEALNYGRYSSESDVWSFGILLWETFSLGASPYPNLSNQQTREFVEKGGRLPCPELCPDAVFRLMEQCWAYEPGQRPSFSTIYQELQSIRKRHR
UniProt P29317, sequence (whole entry, looked up): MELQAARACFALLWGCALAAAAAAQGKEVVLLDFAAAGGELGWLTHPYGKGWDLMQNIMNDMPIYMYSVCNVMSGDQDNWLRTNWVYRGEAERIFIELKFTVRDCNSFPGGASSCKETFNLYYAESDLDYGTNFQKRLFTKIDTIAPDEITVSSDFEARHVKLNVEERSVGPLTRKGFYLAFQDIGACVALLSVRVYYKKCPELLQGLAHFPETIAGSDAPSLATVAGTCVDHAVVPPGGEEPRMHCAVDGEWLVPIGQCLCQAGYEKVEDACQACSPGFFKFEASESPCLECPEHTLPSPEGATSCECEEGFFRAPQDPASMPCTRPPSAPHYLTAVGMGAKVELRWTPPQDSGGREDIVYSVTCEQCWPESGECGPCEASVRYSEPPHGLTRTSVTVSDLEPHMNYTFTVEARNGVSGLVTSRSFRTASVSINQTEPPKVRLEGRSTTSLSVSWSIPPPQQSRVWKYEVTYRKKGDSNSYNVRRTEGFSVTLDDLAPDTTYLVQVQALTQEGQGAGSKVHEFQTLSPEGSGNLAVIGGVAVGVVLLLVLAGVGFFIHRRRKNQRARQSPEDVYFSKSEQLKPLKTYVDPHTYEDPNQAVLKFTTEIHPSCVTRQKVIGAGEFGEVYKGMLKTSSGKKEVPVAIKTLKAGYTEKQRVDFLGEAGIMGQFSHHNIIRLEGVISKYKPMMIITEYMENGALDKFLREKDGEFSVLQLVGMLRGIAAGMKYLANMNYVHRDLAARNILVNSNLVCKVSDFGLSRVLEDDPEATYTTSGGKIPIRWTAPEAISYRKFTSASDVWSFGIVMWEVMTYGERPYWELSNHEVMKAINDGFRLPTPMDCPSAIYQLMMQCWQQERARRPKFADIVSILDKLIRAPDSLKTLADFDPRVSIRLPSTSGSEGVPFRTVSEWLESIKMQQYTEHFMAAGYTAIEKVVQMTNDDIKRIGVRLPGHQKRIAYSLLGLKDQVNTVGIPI
UniProt Q99640, sequence (whole entry, looked up): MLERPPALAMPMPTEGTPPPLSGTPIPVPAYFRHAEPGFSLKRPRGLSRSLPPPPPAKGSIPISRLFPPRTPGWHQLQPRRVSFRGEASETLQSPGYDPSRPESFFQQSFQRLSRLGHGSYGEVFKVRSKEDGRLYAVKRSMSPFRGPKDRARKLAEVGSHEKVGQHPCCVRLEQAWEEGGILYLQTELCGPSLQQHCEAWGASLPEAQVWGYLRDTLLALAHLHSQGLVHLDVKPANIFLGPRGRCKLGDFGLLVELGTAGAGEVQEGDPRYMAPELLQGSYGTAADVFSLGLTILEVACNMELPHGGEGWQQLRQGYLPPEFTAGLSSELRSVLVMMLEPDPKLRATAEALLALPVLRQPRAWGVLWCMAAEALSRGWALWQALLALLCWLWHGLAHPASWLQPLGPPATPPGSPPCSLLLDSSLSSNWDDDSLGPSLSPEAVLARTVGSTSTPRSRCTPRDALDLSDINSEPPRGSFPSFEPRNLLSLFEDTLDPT
UniProt P36894, sequence (whole entry, looked up): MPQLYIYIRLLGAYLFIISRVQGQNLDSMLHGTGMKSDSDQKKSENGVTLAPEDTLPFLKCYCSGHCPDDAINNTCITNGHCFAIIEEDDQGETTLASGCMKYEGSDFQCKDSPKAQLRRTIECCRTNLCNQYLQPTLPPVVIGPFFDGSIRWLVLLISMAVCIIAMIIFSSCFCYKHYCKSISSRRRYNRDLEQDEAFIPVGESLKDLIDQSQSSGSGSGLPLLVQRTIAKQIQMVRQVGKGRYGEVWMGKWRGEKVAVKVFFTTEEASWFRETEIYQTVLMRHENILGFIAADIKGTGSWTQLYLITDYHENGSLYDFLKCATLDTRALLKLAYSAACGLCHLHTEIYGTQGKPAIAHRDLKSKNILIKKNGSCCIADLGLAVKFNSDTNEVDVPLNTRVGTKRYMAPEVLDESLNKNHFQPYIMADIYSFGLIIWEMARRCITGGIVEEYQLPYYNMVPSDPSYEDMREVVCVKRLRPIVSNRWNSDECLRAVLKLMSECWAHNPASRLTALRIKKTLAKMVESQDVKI
UniProt O43353, sequence (whole entry, looked up): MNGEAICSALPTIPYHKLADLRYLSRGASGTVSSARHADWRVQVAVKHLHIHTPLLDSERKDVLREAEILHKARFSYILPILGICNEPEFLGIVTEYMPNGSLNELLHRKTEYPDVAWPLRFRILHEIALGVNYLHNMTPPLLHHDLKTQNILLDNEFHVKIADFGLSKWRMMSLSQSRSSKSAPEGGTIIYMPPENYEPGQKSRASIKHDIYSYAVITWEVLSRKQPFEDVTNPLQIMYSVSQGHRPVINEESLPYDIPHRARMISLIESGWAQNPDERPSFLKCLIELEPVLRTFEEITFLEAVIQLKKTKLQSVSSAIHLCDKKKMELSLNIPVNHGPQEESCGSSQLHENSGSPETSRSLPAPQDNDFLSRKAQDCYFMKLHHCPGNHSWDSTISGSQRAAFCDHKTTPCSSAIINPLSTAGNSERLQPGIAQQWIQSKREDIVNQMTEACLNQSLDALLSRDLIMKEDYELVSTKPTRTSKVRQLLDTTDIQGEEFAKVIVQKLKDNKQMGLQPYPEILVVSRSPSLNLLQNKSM
UniProt O94768, sequence (whole entry, looked up): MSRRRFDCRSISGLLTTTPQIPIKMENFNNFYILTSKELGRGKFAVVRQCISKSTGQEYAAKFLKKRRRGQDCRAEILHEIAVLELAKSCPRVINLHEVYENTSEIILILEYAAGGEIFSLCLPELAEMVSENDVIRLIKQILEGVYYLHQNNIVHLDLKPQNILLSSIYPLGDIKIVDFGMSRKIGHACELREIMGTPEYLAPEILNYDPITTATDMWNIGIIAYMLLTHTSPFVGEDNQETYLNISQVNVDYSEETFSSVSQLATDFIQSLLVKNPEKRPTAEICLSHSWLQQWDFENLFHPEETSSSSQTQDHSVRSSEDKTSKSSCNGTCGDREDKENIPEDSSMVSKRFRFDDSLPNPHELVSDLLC

Series 1
SMILES: CN(C)CC#Cc1ccc(OCCCc2sc(N3CCc4cccc(C(=O)Nc5nc6ccccc6s5)c4C3)nc2C(=O)O)c(F)c1
Technique: competition with immobilised ligand
Concentration: 1 µM
| target | effect on | remaining binding |
| --- | --- | --- |
| Bone morphogenetic protein receptor type-1A (BMPR1A, Homo sapiens, UniProt P36894) | binding | 99% |
| Receptor-interacting serine/threonine-protein kinase 2 (RIPK2, Homo sapiens, UniProt O43353) | cell-free assay | 100% |
| Ephrin type-A receptor 2 (EPHA2, Homo sapiens, UniProt P29317) | cell-free assay | 92% |
| Phosphatidylinositol 4,5-bisphosphate 3-kinase catalytic subunit alpha isoform (PIK3CA, Homo sapiens, UniProt P42336, E545A) | cell-free assay | 100% |
| Membrane-associated tyrosine- and threonine-specific cdc2-inhibitory kinase (PKMYT1, Homo sapiens, UniProt Q99640) | cell-free assay | 71% |
| Serine/threonine-protein kinase 17B (STK17B, Homo sapiens, UniProt O94768) | cell-free assay | 72% |
| Tyrosine-protein kinase Fes/Fps (FES, Homo sapiens, UniProt P07332) | cell-free assay | 100% |
| Ephrin type-B receptor 3 (EPHB3, Homo sapiens, UniProt P54753) | cell-free assay | 100% |
| Tyrosine-protein kinase SYK (SYK, Homo sapiens, UniProt P43405) | cell-free assay | 100% |
| Mitogen-activated protein kinase kinase kinase kinase 3 (MAP4K3, Homo sapiens, UniProt Q8IVH8) | cell-free assay | 92% |

Series 2
Species: mouse
Sample: microsomes or S9
Concentration: 2 µM
Time: 0.5 h
| SMILES | remaining compound |
| --- | --- |
| Cc1nn(C(=O)c2cccnc2)c(C)c1Cc1c(F)cccc1Cl | < 1% |
| O=C(O)C1C[S+]([O-])C2c3ccccc3C(=O)N12 (centres unmarked) | 36.1% |
| Nc1cccc(Nc2nc(Cl)nc3[nH]ccc23)c1 | 15.9% |

Series 3
Cell line: mouse MPNST tumor cells
Technique: high-content nuclear imaging
Refers to: cell number
Concentration: 10 µM
Time: 12 h
Setting: mean of 2 replicates
Reference: plate mean
Reading: higher = more cells
| SMILES | nuclei count [z-score] |
| --- | --- |
| Cn1c(=O)c2c(ncn2CC(=O)O)n(C)c1=O | 0.452 |
| O=C(CCCCCCC(=O)Nc1cccnc1)NO | 0.826 |
| CCCCOC(=O)c1ccc(O)cc1 | 2.29 |

Other studies, line by line
| Structure (SMILES) | tested on | assay | test system | setting | scale | endpoint | result |
| --- | --- | --- | --- | --- | --- | --- | --- |
| CC(C)C[C@@H]1NC(=O)[C@@H](C)NC(=O)[C@@H](CC(C)C)NC(=O)[C@@H](CC(C)C)NC(=O)[C@H](C)NC(=O)[C@H](CC(C)C)NC(=O)[C@@H](CC(C)C)NC1=O |  | PRP chromatography estimate | 1,9-decadiene/PBS | pH 7.4 |  | logD | -0.0349 |
| N#Cc1c(NC(=O)c2cccc3ccccc23)sc2c1CCCC2 | panel of 300 human kinases |  |  | 0.5 µM | higher = more selective | Gini score | 0.75 |
| CC(C)C[C@@H]1NC(=O)[C@H](Cc2cscn2)NC(=O)[C@H](C)NC(=O)[C@H](CC(C)C)NC(=O)[C@@H](CCC(=O)N2CCCC2)NC(=O)[C@H](CC(C)C)NC(=O)[C@@H](CC(C)C)NC1=O |  | PRP chromatography estimate | 1,9-decadiene/PBS | pH 7.4 |  | logD | -1.3 |
| CC(C)C[C@@H]1NC(=O)[C@H](CC(C)C)NC(=O)[C@H](CC(C)C)NC(=O)[C@H](Cc2cscn2)NC(=O)[C@@H](Cc2cscn2)NC(=O)[C@H](Cc2cscn2)NC(=O)[C@H](CCC(=O)N2CCCC2)NC1=O |  | PRP chromatography estimate | 1,9-decadiene/PBS | pH 7.4 |  | logD | -2.08 |
